Assay results pooled from the literature.
Lines come from different studies, so protocols differ.
Target: Serine/threonine-protein kinase Chk2 (CHEK2, Homo sapiens, UniProt O96017)
Sequence of UniProt O96017 (whole entry, looked up): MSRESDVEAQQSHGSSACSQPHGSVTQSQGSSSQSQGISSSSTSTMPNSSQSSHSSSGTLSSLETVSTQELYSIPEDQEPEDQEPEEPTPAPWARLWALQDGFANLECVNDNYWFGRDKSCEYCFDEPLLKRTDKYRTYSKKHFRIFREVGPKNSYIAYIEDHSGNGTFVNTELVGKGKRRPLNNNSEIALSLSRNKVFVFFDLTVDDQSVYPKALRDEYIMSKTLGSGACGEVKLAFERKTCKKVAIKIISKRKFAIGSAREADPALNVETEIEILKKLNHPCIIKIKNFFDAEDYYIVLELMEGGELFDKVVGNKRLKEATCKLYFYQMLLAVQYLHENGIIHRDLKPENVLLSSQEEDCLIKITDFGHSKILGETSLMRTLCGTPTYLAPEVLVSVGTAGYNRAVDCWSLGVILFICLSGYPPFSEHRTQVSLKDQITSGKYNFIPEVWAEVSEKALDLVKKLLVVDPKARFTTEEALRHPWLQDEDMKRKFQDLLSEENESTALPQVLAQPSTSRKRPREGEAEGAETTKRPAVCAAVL

C=CC(=O)N1CCc2ccc(-n3c(=O)ccc4cnc5ccc(-c6cnn(C)c6)cc5c43)cc21  remaining binding (KINOMEscan; 1 µM; reference: DMSO control): 100%
O=C=[N][Ru-4]123([n]4c5ccc(O)cc5c5c6c(c7cc(F)c[n+]1c7c54)C(=O)NC6=O)[S+]1CC[S+]2CC[S+]3CC1 (centres unmarked)  remaining activity (enzyme activity; 100 nM, human enzyme, added: 10 µM ATP; reference: untreated): 89%
Cc1cccc(-c2ccc3nc(NC(=O)C4CCOCC4)nn3c2)c1  remaining activity (enzyme activity, Dundee kinase panel; 10 µM): 93%
C=CC(=O)Nc1cccc(-c2cnc3[nH]cc(C(=O)NC(C)(C)C)c3n2)c1  inhibition (enzyme activity, inhibitor; 0.1 µM): 14%
CC(C)=CC1OC(C)(C)C2C=C3C(=O)C(Cl)=CC(O)C3C3C(O)C4OC4C(=O)C132 (centres unmarked)  remaining binding (cell-free assay, competition with immobilised ligand; 10 µM): 88%
Cc1cccc(O[C@H]2CCC[C@@H](C(C)CNCc3ccncc3)C2)c1 (relative stereo)  inhibition (enzyme activity, inhibitor; 1 µM): 5%
CCN1CCN(Cc2ccc(C(=O)Nc3ccc(C)c(NCc4cnc5[nH]ccc5c4OC)c3)cc2C(F)(F)F)CC1  remaining binding (binding, competition with immobilised ligand; 1 µM): 100%
Nc1ncc2c(n1)-c1c([nH]c3ccc(C4=CCOCC4)cc13)CCC2  remaining binding (binding, competition with immobilised ligand; 1 µM): 75%
CNC1C[S+]2CC[S+]3CC[S+](C1)[Ru-4]321([N]=C=S)[n]2c3ccc(OC)cc3c3c4c(c5cc(F)c[n+]1c5c32)C(=O)NC4=O (centres unmarked)  remaining binding (KinomeScan; 0.1 µM; reference: untreated): 91%
CN1CC[C@@H](COc2cnc(C#N)cc2-c2ccn3nc(NC(=O)C4CC4)cc3c2)C1  inhibition (enzyme activity, inhibitor; 1 µM): 19%
Cc1ccc(-c2c(/C=C(\C#N)C(=O)NC(C)C)n(CCCO)c3ncnc(N)c23)cc1  remaining binding (cell-free assay, competition with immobilised ligand; 1 µM): 100%
CCn1cc(C(=O)O)c(=O)c2c(N)c(F)c(NC3CCCCC3)cc21  inhibition (kinase activity; 0.1 µM, added: ATP at Km): 4.9%
Cc1nc2c(F)cc(-c3nc(Nc4ccc(CNC(=O)CCCCCCC(=O)NO)cc4)ncc3F)cc2n1C(C)C  inhibition (enzyme activity, inhibitor; 1 µM): 73%
COc1ccc(NC(=O)Nc2ccc3c(c2)C(=O)N(C(C)CO)CC(C)C(CN(C)Cc2ccc4c(c2)OCO4)O3)cc1 (centres unmarked)  remaining activity (kinase activity, KinaseProfiler; 0.03 µM, species human; reference: control): 97%

For quick reference, copied from above:
O=C=[N][Ru-4]123([n]4c5ccc(O)cc5c5c6c(c7cc(F)c[n+]1c7c54)C(=O)NC6=O)[S+]1CC[S+]2CC[S+]3CC1 (centres unmarked)  remaining activity (enzyme activity; 100 nM, human enzyme, added: 10 µM ATP; reference: untreated): 89%
